Results pooled from the literature.
Each numbered part is a random draw from the data of one study; scales do not carry over between parts.
Sequence of UniProt Q02750 (whole entry, looked up): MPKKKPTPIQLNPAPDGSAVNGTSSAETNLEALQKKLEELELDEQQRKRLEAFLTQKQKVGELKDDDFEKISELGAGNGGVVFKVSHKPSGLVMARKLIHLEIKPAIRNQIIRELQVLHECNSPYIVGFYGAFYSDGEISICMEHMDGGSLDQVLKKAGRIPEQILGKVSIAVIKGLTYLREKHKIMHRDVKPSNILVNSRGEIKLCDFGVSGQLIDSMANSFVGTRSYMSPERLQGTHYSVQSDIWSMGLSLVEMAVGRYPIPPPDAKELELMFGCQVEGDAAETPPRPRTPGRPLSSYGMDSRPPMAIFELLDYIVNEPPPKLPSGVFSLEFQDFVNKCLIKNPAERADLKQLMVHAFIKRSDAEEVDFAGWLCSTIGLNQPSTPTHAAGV
Sequence of UniProt P31751 (whole entry, looked up): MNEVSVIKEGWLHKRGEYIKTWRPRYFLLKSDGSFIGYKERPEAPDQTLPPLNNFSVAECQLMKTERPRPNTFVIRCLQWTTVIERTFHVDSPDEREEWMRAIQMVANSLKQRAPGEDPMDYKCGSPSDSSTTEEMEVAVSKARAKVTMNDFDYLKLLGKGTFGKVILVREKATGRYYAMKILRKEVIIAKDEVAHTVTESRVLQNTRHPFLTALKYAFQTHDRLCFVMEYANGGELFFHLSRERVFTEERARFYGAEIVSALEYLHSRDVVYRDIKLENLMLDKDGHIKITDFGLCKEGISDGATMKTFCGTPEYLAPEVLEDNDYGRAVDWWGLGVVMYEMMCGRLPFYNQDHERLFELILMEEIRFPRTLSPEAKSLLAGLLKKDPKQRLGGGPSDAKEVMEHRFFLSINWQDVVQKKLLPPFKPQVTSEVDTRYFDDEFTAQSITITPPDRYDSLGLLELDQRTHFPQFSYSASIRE

Series 1 — cell line: A-375; tested at: 100 µM; time: 18 h; endpoint: viability
Structure (SMILES) = C[C@@H]1O[C@@H](OC[C@H]2O[C@@H](Oc3c(-c4ccc(OCCO)c(OCCO)c4)oc4cc(OCCO)cc(O)c4c3=O)[C@H](O)[C@@H](O)[C@@H]2O)[C@H](O)[C@H](O)[C@H]1O; result = 72.6%
Structure (SMILES) = CCN(CC)CCNC(=O)c1cc(Br)c(N)cc1OC; result = 90.2%
Structure (SMILES) = OC[C@H]1O[C@@H](c2ccc(Cl)c(Cc3ccc(O[C@H]4CCOC4)cc3)c2)[C@H](O)[C@@H](O)[C@@H]1O; result = 100%

Series 2 — observed: enzyme activity; mode: inhibitor; tested at: 0.5 µM; relative to: control; endpoint: remaining activity
Target: Dual specificity mitogen-activated protein kinase kinase 2 (MAP2K2, Homo sapiens, UniProt P36507)
Sequence of UniProt P36507 (whole entry, looked up): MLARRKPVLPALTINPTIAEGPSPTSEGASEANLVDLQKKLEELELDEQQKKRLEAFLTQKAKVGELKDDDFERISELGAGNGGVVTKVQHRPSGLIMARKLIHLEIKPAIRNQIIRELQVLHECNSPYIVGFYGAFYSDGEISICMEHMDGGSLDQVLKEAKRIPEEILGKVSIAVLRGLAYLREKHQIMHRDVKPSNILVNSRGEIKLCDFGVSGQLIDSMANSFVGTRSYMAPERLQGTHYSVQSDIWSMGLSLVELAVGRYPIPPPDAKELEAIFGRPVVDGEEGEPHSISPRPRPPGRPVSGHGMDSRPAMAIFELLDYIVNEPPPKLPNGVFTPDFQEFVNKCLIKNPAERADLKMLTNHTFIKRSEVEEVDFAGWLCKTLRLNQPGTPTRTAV
Structure (SMILES) = Nc1[nH]nc2nc3ccccc3nc12; result = 104%
Structure (SMILES) = Oc1ccc(-c2nc(-c3ccncc3)c(-c3ccc(F)cc3)[nH]2)cc1; result = 101%
Structure (SMILES) = Cn1sc(=O)n(Cc2ccccc2)c1=O; result = 101%
Structure (SMILES) = CCOC(=O)c1c(C)[nH]c(/C=C2\C(=O)Nc3ccccc32)c1C; result = 102%
Structure (SMILES) = Cc1ccc(Nc2nccc(N(C)c3ccc4c(C)n(C)nc4c3)n2)cc1S(N)(=O)=O; result = 94.8%
Structure (SMILES) = O=C1NC(=O)C(c2cn(CCCn3ccnc3)c3ccccc23)=C1Nc1ccccc1; result = 102%
Structure (SMILES) = O=C1NC(=O)C(c2cn(CCCO)c3ncccc23)=C1c1cnccn1; result = 90.3%
Structure (SMILES) = Cc1nc(-c2ccccc2)c(-c2ccncc2)o1; result = 106%
Structure (SMILES) = COc1ccc(OC)c2c(=S)c3ccccc3[nH]c12; result = 100%
Structure (SMILES) = COc1cc2ncnc(Nc3ccc(F)c(Cl)c3)c2cc1OCCCN1CCOCC1; result = 102%
Structure (SMILES) = Cn1c2ccccc2c2c3c(c4c5ccccc5n(CCC#N)c4c21)CNC3=O; result = 92.5%
Structure (SMILES) = COc1cc2ncnc(Nc3ccc(Oc4ccccc4)cc3)c2cc1OC; result = 105%

Series 3 — sample: plasma; route: oral; endpoint: plasma concentration, geometric mean
SMILES: COc1ccc(-c2c(Nc3ccccn3)[nH]c3c(C4=CCCCC4)c(-c4ccccc4)nn3c2=O)cc1
method = LC-MS/MS; species = human; dose = 200 mg twice daily; time = 2 h; result = 13100 ng/mL
species = human patients; dose = 100 mg once daily; time = 3 h; notes = cycle 1; result = 3480 ng/mL
species = cancer patients; dose = 100 mg; time = 4 h post-dose; notes = single dose; result = 1060 ng/mL
species = human patients; dose = 400 mg once daily; time = 0.5 h; notes = cycle 1; result = 2340 ng/mL

Series 4 — cell line: mouse MPNST tumor cells; method: high-content nuclear imaging; refers to: cell number; tested at: 10 µM; time: 12 h; notes: mean of 2 replicates; relative to: plate mean; direction: higher = more cells; endpoint: nuclei count
Structure (SMILES) = CC(=O)Oc1cc(C(C)C)c(OCCN(C)C)cc1C; result = 1.99 z-score
Structure (SMILES) = CCOC(=O)[C@H](CCc1ccccc1)N[C@@H](C)C(=O)N1CCC[C@H]1C(=O)O; result = 1.65 z-score
Structure (SMILES) = N#Cc1ccc(NCCNCC(=O)N2CCC[C@H]2C#N)nc1; result = 2.91 z-score
Structure (SMILES) = O=S(=O)(O)CCS; result = 2.23 z-score

Series 5 — observed: cell-free assay; method: competition with immobilised ligand; tested at: 1 µM; endpoint: remaining binding
Structure (SMILES): CO[C@H]1CC[C@H](CNc2ccc(S(=O)(=O)NC(=O)c3ccc(N4CCN(CC5=C(c6ccc(Cl)cc6)CC(C)(C)CC5)CC4)cc3Oc3cnc4[nH]ccc4c3)cc2[N+](=O)[O-])CC1
target = Epidermal growth factor receptor (EGFR, Homo sapiens, UniProt P00533, L858R); result = 60%
target = RAC-beta serine/threonine-protein kinase (AKT2, Homo sapiens, UniProt P31751); result = 80%
target = Dual specificity mitogen-activated protein kinase kinase 1 (MAP2K1, Homo sapiens, UniProt Q02750); result = 99%

Excerpt of the above (series 1):
Structure (SMILES) = OC[C@H]1O[C@@H](c2ccc(Cl)c(Cc3ccc(O[C@H]4CCOC4)cc3)c2)[C@H](O)[C@@H](O)[C@@H]1O; result = 100%
Structure (SMILES) = C[C@@H]1O[C@@H](OC[C@H]2O[C@@H](Oc3c(-c4ccc(OCCO)c(OCCO)c4)oc4cc(OCCO)cc(O)c4c3=O)[C@H](O)[C@@H](O)[C@@H]2O)[C@H](O)[C@H](O)[C@H]1O; result = 72.6%
Structure (SMILES) = CCN(CC)CCNC(=O)c1cc(Br)c(N)cc1OC; result = 90.2%
